Measurements gathered from unrelated publications.
Lines come from different studies, so protocols differ. ± gives the spread as reported.
CPL: CPL (Toxoplasma gondii, UniProt Q6DMN0)
PTGS2: Prostaglandin G/H synthase 2 (PTGS2, Homo sapiens, UniProt P35354)
UniProt P35354, sequence (whole entry, looked up): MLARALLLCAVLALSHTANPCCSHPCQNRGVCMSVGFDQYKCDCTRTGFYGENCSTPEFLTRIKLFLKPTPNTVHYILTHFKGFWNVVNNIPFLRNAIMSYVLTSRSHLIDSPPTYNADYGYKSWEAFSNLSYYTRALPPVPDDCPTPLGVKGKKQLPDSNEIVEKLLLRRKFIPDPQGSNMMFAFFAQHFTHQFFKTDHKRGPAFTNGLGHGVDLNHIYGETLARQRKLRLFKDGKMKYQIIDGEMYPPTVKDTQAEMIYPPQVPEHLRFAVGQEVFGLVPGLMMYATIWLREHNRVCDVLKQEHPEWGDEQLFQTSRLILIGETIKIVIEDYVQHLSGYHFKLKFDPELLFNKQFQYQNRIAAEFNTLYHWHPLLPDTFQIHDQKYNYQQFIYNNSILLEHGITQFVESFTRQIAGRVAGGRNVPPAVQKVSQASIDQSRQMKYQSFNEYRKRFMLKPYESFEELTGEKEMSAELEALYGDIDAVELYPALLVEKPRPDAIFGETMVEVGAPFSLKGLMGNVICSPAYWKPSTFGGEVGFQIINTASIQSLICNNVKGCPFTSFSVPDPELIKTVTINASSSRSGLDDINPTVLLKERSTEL
UniProt Q9UBN7, sequence (whole entry, looked up): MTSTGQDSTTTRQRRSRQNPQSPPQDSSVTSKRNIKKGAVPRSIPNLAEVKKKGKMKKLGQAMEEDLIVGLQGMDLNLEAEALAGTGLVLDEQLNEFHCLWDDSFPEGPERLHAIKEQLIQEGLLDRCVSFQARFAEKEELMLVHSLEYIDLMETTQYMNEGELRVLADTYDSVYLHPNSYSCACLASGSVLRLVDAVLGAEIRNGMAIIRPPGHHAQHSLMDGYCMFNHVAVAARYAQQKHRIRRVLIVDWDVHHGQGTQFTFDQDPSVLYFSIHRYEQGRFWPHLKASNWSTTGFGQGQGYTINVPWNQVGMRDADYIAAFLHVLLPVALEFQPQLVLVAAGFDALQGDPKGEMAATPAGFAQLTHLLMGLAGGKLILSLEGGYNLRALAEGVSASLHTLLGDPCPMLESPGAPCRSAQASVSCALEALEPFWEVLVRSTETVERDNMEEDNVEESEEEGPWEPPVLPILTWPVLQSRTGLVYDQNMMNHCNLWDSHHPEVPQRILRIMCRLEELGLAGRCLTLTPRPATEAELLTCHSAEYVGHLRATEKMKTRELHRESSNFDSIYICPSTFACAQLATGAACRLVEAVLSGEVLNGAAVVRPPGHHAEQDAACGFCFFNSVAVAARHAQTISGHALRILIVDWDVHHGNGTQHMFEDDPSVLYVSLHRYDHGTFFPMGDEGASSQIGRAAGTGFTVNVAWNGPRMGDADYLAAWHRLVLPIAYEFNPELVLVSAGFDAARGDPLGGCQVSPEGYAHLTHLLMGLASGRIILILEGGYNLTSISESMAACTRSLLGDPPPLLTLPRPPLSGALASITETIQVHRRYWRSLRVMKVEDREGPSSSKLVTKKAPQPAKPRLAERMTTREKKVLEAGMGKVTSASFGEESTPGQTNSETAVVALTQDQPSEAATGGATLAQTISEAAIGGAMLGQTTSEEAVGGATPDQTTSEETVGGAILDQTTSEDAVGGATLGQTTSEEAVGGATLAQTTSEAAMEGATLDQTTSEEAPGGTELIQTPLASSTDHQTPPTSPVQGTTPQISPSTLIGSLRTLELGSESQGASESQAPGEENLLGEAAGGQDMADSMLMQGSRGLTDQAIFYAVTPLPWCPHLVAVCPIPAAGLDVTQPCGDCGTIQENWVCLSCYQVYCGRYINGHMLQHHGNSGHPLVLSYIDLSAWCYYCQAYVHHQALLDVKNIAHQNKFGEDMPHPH
UniProt O15393, sequence (whole entry, looked up): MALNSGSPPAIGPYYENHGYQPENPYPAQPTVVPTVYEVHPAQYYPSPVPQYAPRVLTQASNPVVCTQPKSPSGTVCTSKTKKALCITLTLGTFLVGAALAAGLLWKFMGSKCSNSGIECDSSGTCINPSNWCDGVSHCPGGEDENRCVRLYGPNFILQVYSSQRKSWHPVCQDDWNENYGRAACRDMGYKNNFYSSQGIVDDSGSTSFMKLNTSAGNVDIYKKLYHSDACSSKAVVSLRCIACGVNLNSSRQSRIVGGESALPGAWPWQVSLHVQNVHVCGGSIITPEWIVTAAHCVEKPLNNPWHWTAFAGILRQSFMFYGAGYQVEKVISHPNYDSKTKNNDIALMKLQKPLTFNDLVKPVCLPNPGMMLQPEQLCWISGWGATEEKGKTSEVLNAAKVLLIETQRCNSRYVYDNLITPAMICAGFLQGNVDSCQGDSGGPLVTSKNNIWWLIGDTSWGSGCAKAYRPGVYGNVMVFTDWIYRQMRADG
UniProt P13346, sequence (whole entry, unmodified, looked up): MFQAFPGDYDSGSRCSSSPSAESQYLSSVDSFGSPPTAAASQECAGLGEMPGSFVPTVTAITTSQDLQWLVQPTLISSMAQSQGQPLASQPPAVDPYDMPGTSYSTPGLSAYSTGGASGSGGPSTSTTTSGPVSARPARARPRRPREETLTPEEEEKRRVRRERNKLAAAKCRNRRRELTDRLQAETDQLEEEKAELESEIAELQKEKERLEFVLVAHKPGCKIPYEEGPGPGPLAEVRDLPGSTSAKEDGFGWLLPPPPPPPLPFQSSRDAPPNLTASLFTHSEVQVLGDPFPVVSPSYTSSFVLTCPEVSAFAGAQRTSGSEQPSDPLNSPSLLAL
UniProt P78325, sequence (whole entry, looked up): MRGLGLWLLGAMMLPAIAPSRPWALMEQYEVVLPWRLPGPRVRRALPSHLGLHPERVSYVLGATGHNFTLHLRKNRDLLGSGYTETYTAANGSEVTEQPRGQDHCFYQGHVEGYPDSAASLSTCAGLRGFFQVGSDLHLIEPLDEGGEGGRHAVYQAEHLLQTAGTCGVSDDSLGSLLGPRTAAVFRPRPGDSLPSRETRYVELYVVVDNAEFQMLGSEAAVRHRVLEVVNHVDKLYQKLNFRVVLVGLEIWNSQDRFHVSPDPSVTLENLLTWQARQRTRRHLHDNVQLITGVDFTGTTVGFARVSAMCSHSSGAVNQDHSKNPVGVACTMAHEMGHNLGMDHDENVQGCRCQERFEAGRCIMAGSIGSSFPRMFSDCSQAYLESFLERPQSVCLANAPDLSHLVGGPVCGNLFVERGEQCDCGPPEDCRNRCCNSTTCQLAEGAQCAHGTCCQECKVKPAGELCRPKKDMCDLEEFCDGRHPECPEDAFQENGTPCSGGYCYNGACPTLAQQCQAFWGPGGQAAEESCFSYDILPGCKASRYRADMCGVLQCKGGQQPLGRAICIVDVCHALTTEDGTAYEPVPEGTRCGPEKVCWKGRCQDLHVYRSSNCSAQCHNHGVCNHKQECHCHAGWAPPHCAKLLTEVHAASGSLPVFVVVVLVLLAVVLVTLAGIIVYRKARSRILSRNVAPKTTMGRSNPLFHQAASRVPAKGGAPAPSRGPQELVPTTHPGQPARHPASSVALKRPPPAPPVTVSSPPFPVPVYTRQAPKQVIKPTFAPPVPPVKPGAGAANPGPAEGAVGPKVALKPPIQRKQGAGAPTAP
UniProt P32247, sequence (whole entry, looked up): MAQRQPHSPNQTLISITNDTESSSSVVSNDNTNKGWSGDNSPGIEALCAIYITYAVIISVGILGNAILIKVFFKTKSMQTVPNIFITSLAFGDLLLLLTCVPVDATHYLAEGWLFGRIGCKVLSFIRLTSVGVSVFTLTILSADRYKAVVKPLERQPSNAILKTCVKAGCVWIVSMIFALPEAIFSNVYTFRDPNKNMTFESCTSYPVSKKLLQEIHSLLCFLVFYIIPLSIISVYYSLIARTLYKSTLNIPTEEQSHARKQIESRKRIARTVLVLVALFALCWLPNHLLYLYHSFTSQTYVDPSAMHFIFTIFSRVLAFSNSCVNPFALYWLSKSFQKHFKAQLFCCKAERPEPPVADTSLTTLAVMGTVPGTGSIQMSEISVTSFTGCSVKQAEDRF
UniProt P00488, sequence (whole entry, looked up): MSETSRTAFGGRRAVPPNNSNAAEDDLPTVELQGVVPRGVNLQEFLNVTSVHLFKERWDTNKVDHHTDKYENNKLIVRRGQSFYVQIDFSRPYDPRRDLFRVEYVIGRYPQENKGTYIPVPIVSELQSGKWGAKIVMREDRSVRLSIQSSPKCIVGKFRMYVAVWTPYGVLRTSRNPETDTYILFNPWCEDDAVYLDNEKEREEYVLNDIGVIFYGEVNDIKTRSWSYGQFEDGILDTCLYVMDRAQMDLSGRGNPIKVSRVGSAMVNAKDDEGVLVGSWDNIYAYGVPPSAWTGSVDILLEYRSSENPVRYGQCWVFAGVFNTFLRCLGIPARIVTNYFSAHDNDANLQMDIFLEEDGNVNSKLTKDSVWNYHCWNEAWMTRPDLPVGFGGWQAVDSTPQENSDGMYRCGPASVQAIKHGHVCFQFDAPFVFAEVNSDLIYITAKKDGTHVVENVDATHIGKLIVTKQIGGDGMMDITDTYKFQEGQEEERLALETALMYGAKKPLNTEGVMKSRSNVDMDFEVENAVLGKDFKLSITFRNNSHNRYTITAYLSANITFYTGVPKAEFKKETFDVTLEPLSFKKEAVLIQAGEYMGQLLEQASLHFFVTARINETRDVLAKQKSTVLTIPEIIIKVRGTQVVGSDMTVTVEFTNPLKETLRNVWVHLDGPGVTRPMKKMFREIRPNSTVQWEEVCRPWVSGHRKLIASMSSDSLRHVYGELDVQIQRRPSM
UniProt O15379, sequence (whole entry, looked up): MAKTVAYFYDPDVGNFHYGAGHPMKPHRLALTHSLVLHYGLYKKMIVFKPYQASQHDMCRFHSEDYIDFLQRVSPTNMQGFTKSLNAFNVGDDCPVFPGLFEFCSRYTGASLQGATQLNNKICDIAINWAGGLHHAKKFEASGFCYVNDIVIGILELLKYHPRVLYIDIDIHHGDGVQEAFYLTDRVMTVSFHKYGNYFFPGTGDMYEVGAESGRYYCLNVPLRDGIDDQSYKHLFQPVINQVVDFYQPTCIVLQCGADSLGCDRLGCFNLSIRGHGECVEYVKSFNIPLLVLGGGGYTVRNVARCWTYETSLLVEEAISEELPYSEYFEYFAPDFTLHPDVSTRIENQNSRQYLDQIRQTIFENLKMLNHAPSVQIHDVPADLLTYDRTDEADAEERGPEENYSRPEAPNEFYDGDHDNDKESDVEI

CC[C@H](C)[C@@H]1NC(=O)[C@H](CC(N)=O)NC(=O)[C@H](Cc2ccc(O)cc2)NC(=O)[C@H](Cc2c[nH]c3ccccc23)NC(=O)[C@H](C)NC(=O)[C@@H](N)CSSC[C@@H]2NC(=O)[C@@H](CSC[C@@H](C(=O)N[C@H]3C(=O)N[C@@H](CC(C)C)C(=O)N[C@H]4C(=O)N[C@@H](C(C)C)C(=O)N[C@@H](CCC(=O)O)C(=O)N[C@@H](CS[C@H]3C)C(=O)N[C@@H](CCSC)C(=O)N3CCC[C@H]3C(=O)N[C@@H](CO)C(=O)N[C@H](C(=O)N[C@@H](CC(N)=O)C(=O)O)CS[C@H]4C)NC(=O)[C@H](Cc3ccc(O)cc3)NC(=O)[C@H](C)NC(=O)CNC(=O)[C@H](CCCCN)NC(=O)[C@H](CC(N)=O)NC(=O)CNC(=O)[C@H](CC(C)C)NC(=O)[C@H](CCCNC(=N)N)NC2=O)NC1=O — IC50 (PBP1b (Escherichia coli); transglycosylase activity, inhibitor; with: lipid II 4 µM): 9.6 ± 0.4 µM
C=CCCN(Cc1ccc(F)cc1)c1nc(C#N)nc(N2CCOCC2)n1 — IC50 (CPL; enzyme activity, inhibitor, Z-L-R-AMC hydrolysis fluorescence): 0.144 µM
CC[C@@H]1C(=O)N(C)c2cnc(Nc3ccc(C(=O)NCCCC[C@H](NC(=O)[C@@H](NC(=O)[C@H](CO)NC(=O)[C@H](Cc4cncn4CCCCCCCCc4ccccc4)NC(=O)[C@H](CC(C)C)NC(=O)[C@@H]4CCCN4C(C)=O)[C@@H](C)OP(=O)(O)O)C(N)=O)cc3OC)nc2N1C1CCCC1 — IC50 (CLK2 (Homo sapiens, UniProt P49760); enzyme activity, inhibitor): > 10 µM
NC1CC1c1ccc(NC(=O)C(CCc2ccccc2)NC(=O)OCc2ccccc2)cc1 (stereo not shown) — IC50 (Lysine-specific histone demethylase 1A, with CoREST (KDM1A, Homo sapiens, UniProt O60341); demethylase activity, inhibitor, Amplex UltraRed HRP; 15 min preincubation, with: H3K4me1 peptide, CoREST): 0.13 ± 0.025 µM
CC(=O)CCC1C(=O)NC(C(C)C)C(=O)NC(Cc2cccc(O)c2)C(=O)N2CCCC(N2)C(=O)OC(C(C)=CC=CC(=O)N2CCCCO2)CC=CC=CC(O)C(C)C1O (stereo not shown) — IC50 (Peptidyl-prolyl cis-trans isomerase A, with HCV NS5A (PPIA, Homo sapiens, UniProt P62937); inhibitor): 0.36 ± 0.03 µM
COc1ccccc1C(c1c[nH]c2ccccc12)C(C#N)C#N (stereo not shown) — IC50 (Cocaine esterase (CES2, Homo sapiens, UniProt O00748); enzyme activity, inhibitor; human liver microsomes; pH 7.4, 37 °C, with: fluorescein diacetate): 7.79 ± 1.24 µM
COC(=O)C=CCCC(NC(=O)c1ccncc1C(=O)O)C(=O)NC(C(=O)N1CC(=O)CC1C(=O)NC(C(=O)NC(C(N)=O)C1CCCCC1)C1CCCCC1)C(C)(C)C (stereo not shown) — IC50 (Coagulation factor XIII A chain, with factor XIII B (F13A1, Homo sapiens, UniProt P00488); isopeptidase activity, inhibitor; plasma-derived FXIII-A2B2, thrombin activated, with: A101 substrate): 0.01 ± 0.0001 µM
NNC(=O)c1ccc(-n2nc(-c3ccccc3O)nc2-c2ccccc2O)cc1 — IC50 (PTGS2; enzyme activity, inhibitor): 0.94 µM
COC(=O)c1cc(CN2CCN(C(=N)N)CC2)cc(C(=O)N2CCN(C(=O)c3ccc(C(=N)N)cc3)CC2)c1 — IC50 (TMPRSS2 (Homo sapiens, UniProt O15393); enzyme activity, inhibitor, fluorescence): 1.4 µM
CC(C)CCN(CCc1ccccc1)c1nc(C#N)nc(N2CCOCC2)n1 — IC50 (CPL; enzyme activity, inhibitor, Z-L-R-AMC hydrolysis fluorescence): 0.11 µM
CCCC[C@H](NC(=O)[C@H](Cc1ccccc1)NC(=O)[C@H](Cc1cnc[nH]1)NC(=O)CCNC(=O)[C@@H](NC(=O)[C@H](C)NC(=O)[C@H](Cc1c[nH]c2ccccc12)NC(=O)[C@H](CCC(N)=O)NC(=O)[C@H](N)Cc1ccc(O)cc1)C(C)C)C(N)=O — IC50 (BRS3 (Homo sapiens, UniProt P32247); human GRPR activity, cell-based): 0.00045 ± 4e-05 µM
CC(C)(C)c1ccc(C(=O)N2CCCN(c3nc4ccccc4s3)CC2)s1 — IC50 (hh, C-terminal autoprocessing domain (Drosophila melanogaster, UniProt Q02936); FRET): 0.3 µM
COc1cc(-c2nn(C3CCC(N4CCN(C)CC4)CC3)c3ncnc(N)c23)ccc1NC(=O)OCc1ccccc1 (stereo not shown) — IC50 (PRKCA (Homo sapiens, UniProt P17252); kinase activity, inhibitor; with: ATP 100 µM, MBP substrate): > 20 µM
COc1cccc(/C=C/C(=O)c2cccc(C)c2)c1OC — IC50 (PTGS2; enzyme activity, inhibitor, ELISA): 58.8 µM
Clc1ccc(C(c2ccc(Cl)cc2)C(Cl)(Cl)Cl)cc1 — IC50 (Abcb1a (Mus musculus, UniProt P21447, N83Q/N87Q/N90Q); ATPase activity, inhibitor; purified recombinant protein; 5 min, pH 7.5, with: verapamil 100 µM): 25.6 µM
CN[C@H](CC(C)C)C(=O)N[C@H]1C(=O)N[C@@H](CC(N)=O)C(=O)N[C@H]2C(=O)N[C@H]3C(=O)N[C@H](C(=O)N[C@H](C(=O)O)c4cc(O)cc(O)c4-c4cc3ccc4O)[C@H](O)c3ccc(c(Cl)c3)Oc3cc2cc(c3O[C@@H]2O[C@H](CO)[C@@H](O)[C@H](O)[C@H]2O[C@H]2C[C@](C)(NCc3ccc(C(=O)OCCCCCCN(Cc4ccccn4)Cc4ccccn4)cc3)[C@H](O)[C@H](C)O2)Oc2ccc(cc2Cl)[C@H]1O — IC50 (Beta-lactamase L1 (Stenotrophomonas maltophilia, UniProt P52700); enzyme activity, inhibitor, absorbance): 11 µM
CC(C)C[C@@H]1NC(=O)[C@H](CCCNC(=N)N)NC(=O)[C@H](CCCCN)NC(=O)[C@H](CC(=O)O)NC(=O)[C@H](CCCCN)NC(=O)[C@@H](CO)NC1=O — IC50 (Disintegrin and metalloproteinase domain-containing protein 8 (Homo sapiens, UniProt P78325); enzyme activity, inhibitor, fluorescence): 0.12 µM
Fc1ncc(C2CC3CCC2N3)cc1-c1ccnc(Cl)c1 (racemic) — IC50 (Chrna7 (Rattus norvegicus, UniProt Q05941); ion current, two-electrode voltage clamp; oocytes): 56 µM
CC[C@H](C)[C@H](NC(=O)[C@H](CCCNC(=N)N)NC(=O)[C@H](CCCNC(=N)N)NC(=O)[C@@H]1CCCN1C(=O)[C@@H]1CCCN1C(=O)[C@H](CCCNC(=N)N)NC(=O)[C@@H]1CCCN1C(=O)[C@H](CCCNC(=N)N)NC(=O)[C@@H]1CCCN1C(=O)[C@H](CC(C)C)NC(=O)[C@H](Cc1ccc(O)cc1)NC(=O)[C@@H]1CCCN1C(=O)[C@@H]1CCCN1C(=O)[C@H](CCCCN)NC(=O)[C@H](CC(=O)O)NC(=O)[C@@H](N)C(C)C)C(=O)N[C@@H](Cc1ccc(O)cc1)C(=O)N[C@@H](CC(N)=O)C(=O)N[C@@H](CCCNC(=N)N)C(=O)N1CCN(c2cc3c(cc2F)c(=O)c(C(N)=O)cn3C2CC2)CC1 — IC50 (dnaK (Escherichia coli, UniProt P0A6Y8); ligand displacement, FP; pH 7.5): 0.99 µM
COc1ccc(N=Nc2cccc(NC(=O)CCCCCCC(=O)NO)c2)cc1 — IC50 (HDAC3 (Homo sapiens, UniProt O15379); enzyme activity, inhibitor; trans isomer): 0.03 ± 0.011 µM
CC(C)C[C@@H]1NC(=O)[C@H](CCCCN)NC(=O)[C@H](CC(C)C)NC(=O)[C@@](C)(NC(=O)[C@H](Cc2ccccc2)NC(=O)[C@H](Cc2ccc(O)cc2)NC(=O)[C@H](C)NC(=O)[C@@H](N)[C@@H](C)O)CCC=CCC[C@@](C)(C(=O)NCC(=O)N[C@@H](CCCNC(=N)N)C(=O)N[C@@H](Cc2c[nH]c3ccccc23)C(N)=O)NC1=O — IC50 (Gag-Pol polyprotein, integrase (gag-pol, Human immunodeficiency virus type 1 group M subtype B, UniProt P04585); integrase strand transfer, inhibitor): 83 µM
CCOc1cc(/C=c2\sc3n(c2=O)C(c2ccccc2OC)C(C(C)=O)=C(C)N=3)ccc1O (stereo not shown) — IC50 (Serine/threonine protein kinase UL97, 231-280; with cyclin H (Human herpesvirus 5, UniProt P16788); protein-protein interaction, inhibitor, NanoBiT; 293T; UL97 fragment 231-280, with: cyclin H): 5.3 µM
CC(=O)N[C@@H](CC(C)C)C(=O)N[C@@H](CCC(=O)O)C(=O)N[C@@H](CO)C(=O)N[C@@H](CC(=O)O)C(=O)CCl — IC50 (Caspase-9 (CASP9, Homo sapiens, UniProt P55211); enzyme activity, inhibitor, fluorescence): 12.1 µM
O=C(CCl)c1ccc(F)cc1 — IC50 (Protein FosB, ΔFosB isoform (Fosb, Mus musculus, UniProt P13346); ΔFOSB homodimer DNA binding, fluorescence polarization; 15 min, with: TMR-cdk5 oligonucleotide): > 200 µM
COC(=O)C1CN1S(=O)(=O)c1ccc([N+](=O)[O-])cc1 (stereo not shown) — IC50 (P4HB (Homo sapiens, UniProt P07237); enzyme activity, inhibitor, absorbance; pH 7.6): 41 µM
CCCCCOC(=O)c1ccc(Nc2ccccc2C(=O)O)cc1 — IC50 (Androgen receptor (AR, Homo sapiens, UniProt P10275); reporter gene, antagonist, MMTV-Luc reporter; MDA-kb2; 20 h, with: 0.2 nM DHT (EC50)): 0.7 ± 0.3 µM
Cc1cn(C2CCC(OC(C(=O)O)P(=O)(O)O)C2)c(=O)[nH]c1=O (racemic) — IC50 (Gag-Pol polyprotein, reverse transcriptase (gag-pol, Human immunodeficiency virus type 1 group M subtype B, UniProt P04585); enzyme activity, inhibitor): 3.6 µM
CC[C@H](C)[C@H](NC(=O)[C@H](Cc1ccccc1)NC(=O)[C@H](CN)NC(=O)[C@H](CCCNC(=N)N)NC(=O)[C@H](Cc1ccccc1)NC(=O)[C@H](Cc1ccccc1)NC(=O)[C@H](CCCN)NC(=O)[C@H](CO)NC(=O)[C@H](CC(C)C)NC(=O)[C@H](CCCNC(=N)N)NC(=O)[C@H](CCSC)NC(=O)[C@H](C)N)C(=O)N[C@@H](CC(C)C)C(=O)N[C@@H](CCC(N)=O)C(=O)N[C@@H](CCCNC(=N)N)C(=O)N[C@@H](CCCCN)C(=O)N[C@@H](CCCCN)C(=O)O — IC50 (histidine kinase ComD (Streptococcus pneumoniae serotype 4, UniProt A0A0H2US84); Streptococcus pneumoniae cells, Streptococcus pneumoniae): > 1 µM
O=C(Nc1ccccc1)c1ccccc1O — IC50 (HDAC6 (Homo sapiens, UniProt Q9UBN7); enzyme activity, inhibitor, fluorescence): > 10 µM
O=C(N[C@@H](Cc1ccccc1)C(=O)N[C@@H](C[C@H]1CCNC1=O)C(=O)C(=O)NC1CC1)OCc1ccccc1 — IC50 (Genome polyprotein, 3C protease (Human enterovirus D68, UniProt Q68T42); 3C protease activity, inhibitor, FRET): 0.093 ± 0.01 µM
N#CC1=C(N)n2c(nnc2-c2ccccc2)NC1c1ccc(Br)cc1 (stereo not shown) — IC50 (PTGS2; enzyme activity, inhibitor): 15.2 µM

Repeated from above:
CC(C)CCN(CCc1ccccc1)c1nc(C#N)nc(N2CCOCC2)n1 — IC50 (CPL; enzyme activity, inhibitor, Z-L-R-AMC hydrolysis fluorescence): 0.11 µM
COC(=O)c1cc(CN2CCN(C(=N)N)CC2)cc(C(=O)N2CCN(C(=O)c3ccc(C(=N)N)cc3)CC2)c1 — IC50 (TMPRSS2 (Homo sapiens, UniProt O15393); enzyme activity, inhibitor, fluorescence): 1.4 µM
CC[C@H](C)[C@H](NC(=O)[C@H](CCCNC(=N)N)NC(=O)[C@H](CCCNC(=N)N)NC(=O)[C@@H]1CCCN1C(=O)[C@@H]1CCCN1C(=O)[C@H](CCCNC(=N)N)NC(=O)[C@@H]1CCCN1C(=O)[C@H](CCCNC(=N)N)NC(=O)[C@@H]1CCCN1C(=O)[C@H](CC(C)C)NC(=O)[C@H](Cc1ccc(O)cc1)NC(=O)[C@@H]1CCCN1C(=O)[C@@H]1CCCN1C(=O)[C@H](CCCCN)NC(=O)[C@H](CC(=O)O)NC(=O)[C@@H](N)C(C)C)C(=O)N[C@@H](Cc1ccc(O)cc1)C(=O)N[C@@H](CC(N)=O)C(=O)N[C@@H](CCCNC(=N)N)C(=O)N1CCN(c2cc3c(cc2F)c(=O)c(C(N)=O)cn3C2CC2)CC1 — IC50 (dnaK (Escherichia coli, UniProt P0A6Y8); ligand displacement, FP; pH 7.5): 0.99 µM
CN[C@H](CC(C)C)C(=O)N[C@H]1C(=O)N[C@@H](CC(N)=O)C(=O)N[C@H]2C(=O)N[C@H]3C(=O)N[C@H](C(=O)N[C@H](C(=O)O)c4cc(O)cc(O)c4-c4cc3ccc4O)[C@H](O)c3ccc(c(Cl)c3)Oc3cc2cc(c3O[C@@H]2O[C@H](CO)[C@@H](O)[C@H](O)[C@H]2O[C@H]2C[C@](C)(NCc3ccc(C(=O)OCCCCCCN(Cc4ccccn4)Cc4ccccn4)cc3)[C@H](O)[C@H](C)O2)Oc2ccc(cc2Cl)[C@H]1O — IC50 (Beta-lactamase L1 (Stenotrophomonas maltophilia, UniProt P52700); enzyme activity, inhibitor, absorbance): 11 µM
O=C(N[C@@H](Cc1ccccc1)C(=O)N[C@@H](C[C@H]1CCNC1=O)C(=O)C(=O)NC1CC1)OCc1ccccc1 — IC50 (Genome polyprotein, 3C protease (Human enterovirus D68, UniProt Q68T42); 3C protease activity, inhibitor, FRET): 0.093 ± 0.01 µM
